Measurements from different studies.
± gives the spread as reported.

Under “tumour growth inhibition”, `CCOP(=O)(OCC)OCCCCOC(=O)CC1=C(C)C(=Cc2ccc([S+](C)[O-])cc2)c2ccc(F)cc21` (stereo not shown) is recorded as 30% (nude mice, A549 xenograft; oral, dose not given).
For `CC[C@H](C)[C@H](NC(=O)[C@H](CCC(=O)O)NC(=O)CNC(=O)[C@@H](NC(=O)[C@H](CC(C)C)NC(=O)[C@H](CC(C)C)NC(=O)[C@H](CC(C)C)NC(=O)[C@H](CC(C)C)NC(=O)[C@H](CS)NC(=O)[C@H](CO)NC(=O)[C@H](Cc1ccccc1)NC(=O)CNC(=O)[C@H](CCCNC(=N)N)NC(=O)[C@@H]1CCCN1C(=O)[C@H](C)NC(=O)[C@H](CCSC)NC(=O)CNC(=O)CNC(=O)[C@H](Cc1ccccc1)NC(=O)[C@H](CCCCN)NC(=O)[C@H](Cc1c(C)cc(O)cc1C)NC(=O)[C@H](N)CCCNC(=N)N)[C@@H](C)O)C(=O)N[C@@H](CC(=O)O)C(=O)N[C@@H](CC(C)C)C(=O)N1CCC[C@H]1C(=O)N[C@H](C(=O)N[C@@H](CCCCN)C(=O)N[C@@H](CCCNC(=N)N)C(=O)N[C@@H](CCCNC(=N)N)C(=O)N[C@@H](C)C(N)=O)C(C)C`, the escape latency was 34.4 ± 4.1 s (Morris water maze; transgenic AD mice, 10 months; iv, 88.4 nmol/kg/day, after 6 days training).
`CC(C)C[C@@H]1NC(=O)[C@H](C(C)C)NC(=O)[C@H](CO)NC(=O)CNC(=O)CNC(=O)[C@H](CCCNC(=N)N)NC(=O)[C@@H]2CCCN2C(=O)[C@@H](NC(=O)CC[C@H](NC(=O)c2ccc(N(C)Cc3cnc4nc(N)nc(N)c4n3)cc2)C(=O)O)C(C)(C)SSC[C@@H](C(=O)O)NC(=O)CNC(=O)[C@H]([C@@H](C)O)NC(=O)[C@H](C(C)C)NC1=O` — result for “paw weight reduction”: 73% (rat adjuvant arthritis; iv, 5 mg/kg once daily, day 14; baseline: arthritis vehicle).
`CCOP(=O)(OCC)OCCCCOC(=O)CC1=C(C)/C(=C/c2ccc([S+](C)[O-])cc2)c2ccc(F)cc21` (stereo not shown) gave an inhibition of 38% (hindpaw inflammation, histology; rat, Freund's adjuvant arthritis; oral, 50 mg/kg once daily, prevention protocol).
`CC[C@H](C)[C@H](NC(=O)[C@H](Cc1c[nH]c2ccccc12)NC(=O)[C@H](CCCNC(=N)N)NC(=O)[C@H](CCCCN)NC(=O)[C@H](CC(C)C)NC(=O)[C@H](CC(=O)O)NC(=O)[C@H](Cc1ccccc1)NC(=O)[C@H](C)NC(=O)[C@H](Cc1ccc(O)cc1)NC(=O)[C@H](CC(N)=O)NC(=O)[C@H](Cc1ccc(O)cc1)NC(=O)[C@H](CCCNC(=N)N)NC(=O)[C@H](Cc1ccc(O)cc1)NC(=O)[C@H](Cc1ccc(O)cc1)NC(=O)[C@@H](NC(=O)[C@H](CC(C)C)NC(=O)[C@H](C)NC(=O)[C@H](CC(N)=O)NC(=O)[C@H](Cc1ccc(O)cc1)NC(C)=O)[C@@H](C)CC)C(=O)N[C@@H](Cc1ccc(O)cc1)C(=O)N[C@@H](CC(C)C)C(N)=O` — result for “α4β7+ CCR9− cells”: 45.8% (refers to: HA-51 tetramer; antigen-experienced tetramer+ CD4 T cells, healthy adults, HLA-DRB1*0101; dose not given).
`N[C@@H](Cc1ccc(O)cc1)C(=O)N1CCC[C@H]1C(=O)NCC(=O)NCC(=O)O`: “ΔG‡ at 298.15 K” 23.2 ± 3.59 kcal/mol (diketopiperazine formation, Arrhenius plot, ESI-MS; 1-propanol; 70, 80, 90 °C, 0.5% acetic acid).
`CC(C)C[C@@H]1NC(=O)[C@@H](Cc2c[nH]c3ccccc23)NC(=O)[C@H](CCCNC(=N)N)NC(=O)[C@@H](CCC(=O)O)NC(=O)[C@H](CCC(N)=O)NC(=O)[C@@H](CCC(=O)O)NC(=O)[C@H](CCCNC(=N)N)NC(=O)[C@@H](Cc2c[nH]c3ccccc23)NC1=O` — result for “Helios+ to RORγt+ Treg ratio”: “increased” (flow cytometry; LDLr-/- mouse, western diet, small intestine lamina propria; dose not given; baseline: vehicle).
`CSCC[C@H](NC(=O)CNC(=O)[C@H](CC(=O)O)NC(=O)[C@@H](NC(=O)[C@@H](NC(=O)[C@@H](NC(=O)CNC(=O)[C@H](CCC(N)=O)NC(=O)[C@H](CCSC)NC(=O)[C@H](CC(=O)O)NC(=O)[C@H](C)NC(=O)[C@H](C)NC(=O)[C@@H](NC(=O)[C@H](CO)NC(=O)[C@@H](N)CC(C)C)[C@@H](C)O)C(C)C)C(C)C)[C@@H](C)O)C(=O)N[C@@H](C)C(=O)N[C@@H](CO)C(=O)NCC(=O)N[C@@H](CC(C)C)C(=O)N[C@@H](CC(=O)O)C(=O)N[C@@H](CCCCN)C(=O)N[C@@H](CC(=O)O)C(=O)N[C@@H](Cc1ccc(O)cc1)C(=O)N[C@@H](CC(C)C)C(=O)N[C@@H](CCCCN)C(=O)N1CCC[C@H]1C(=O)N[C@@H](CC(=O)O)C(=O)N[C@@H](CC(=O)O)C(=O)O`: “partial response duration” 44 to 125 weeks (p53-positive advanced solid tumour patients; dose not given, three patients).
The tumour volume of `CC[C@@]1(O)C(=O)OCc2c1cc1n(c2=O)Cc2cc3cc(OC(=O)CCCC(=O)NCC(=O)N[C@@H](Cc4ccccc4)C(=O)N[C@@H](Cc4ccccc4)C(=O)N[C@@H](Cc4ccc(OP(=O)(O)O)cc4)C(=O)NCCSSCCNC(=O)CCC(=O)N[C@@H](CCC(=O)O)C(=O)N[C@@H](CCCNC(=N)N)C(=O)NCC(=O)N[C@@H](CC(=O)O)C(=O)O)ccc3nc2-1` is reported as ~103 mm³ (nude mice, HepG2 xenograft; intravenous, 3 mg/kg HCPT equivalent, three doses, initial 300 mm^3).
The inhibition of `O=C(O)/C=C/c1cc(O)cc(O)c1` is reported as 65.6 ± 1.84% (DPPH radical scavenging; 250 µg/mL).

Some of these lines once more:
The inhibition of `O=C(O)/C=C/c1cc(O)cc(O)c1` is reported as 65.6 ± 1.84% (DPPH radical scavenging; 250 µg/mL).
